Published values from different studies.
Parts stem from different laboratories: compare values within a part only.

Block 1
Target: Phosphate system positive regulatory protein PHO4, full length, GST-tagged (PHO4, Saccharomyces cerevisiae, UniProt P07270, residues 1-312)
Method: competition protein-binding microarray
Molecule type: double-stranded DNA, one strand shown
Medium: in vitro
Tested at: 2 µM
Notes: whole 60-bp probe, lowest competitor level
With: Cbf1 competitor, 0.05 µM
Direction: higher = stronger binding
Residues (chain): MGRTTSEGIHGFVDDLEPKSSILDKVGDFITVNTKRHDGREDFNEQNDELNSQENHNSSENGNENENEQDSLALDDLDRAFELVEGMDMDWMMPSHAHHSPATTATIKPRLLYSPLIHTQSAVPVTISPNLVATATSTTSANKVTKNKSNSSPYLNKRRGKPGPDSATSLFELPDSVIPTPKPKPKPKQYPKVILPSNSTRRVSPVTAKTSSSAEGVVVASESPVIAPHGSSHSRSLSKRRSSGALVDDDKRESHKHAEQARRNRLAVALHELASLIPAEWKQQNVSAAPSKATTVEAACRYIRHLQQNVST
`CCTGCTGAGCTCAGCCATGCGTCTTACTGCCTGGTGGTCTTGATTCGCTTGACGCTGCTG` gave a fluorescence intensity of 5150 a.u.
With `AGAAAAAAATCATCAAATGTGACGGGCAAATGGGGCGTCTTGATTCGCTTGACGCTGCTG` the fluorescence intensity was 3980 a.u.
With `GAAGAGGTGCCTTGTCACCTGACGCCTTATTTTGTGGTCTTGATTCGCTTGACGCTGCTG` the fluorescence intensity was 3550 a.u.
With `AGCCCGGGGACTTGCCGCGTGGCACCTTGGGGCGCTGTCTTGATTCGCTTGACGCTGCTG` the fluorescence intensity was 9240 a.u.
The fluorescence intensity of `CCACAAGGAATTTGGAACGTGCCGACGTTACTATTGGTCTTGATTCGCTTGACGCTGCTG` is reported as 15100 a.u.
With `TTATTTATAAAAGGACACGGGAGGGGGAATCCCGTCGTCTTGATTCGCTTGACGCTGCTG` the fluorescence intensity was 5200 a.u.
The fluorescence intensity of `CCCGGACATGTACGCCAGGTGATGTTCCATTTGCCAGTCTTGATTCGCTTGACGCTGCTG` is reported as 4300 a.u.
`CGTCCGAGAGCCCGCGACCTGATCCGACTTCAGGGTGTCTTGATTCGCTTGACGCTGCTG` gave a fluorescence intensity of 2870 a.u.
`TGCGCAACAACTTGGTAAGTGGGTGTATGTCTAGAAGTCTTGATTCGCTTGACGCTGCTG` has a fluorescence intensity of 4370 a.u.
With `ACACCATATGGTGCACCCGTGCTGTTTGTCACTGCCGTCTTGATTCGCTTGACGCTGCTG` the fluorescence intensity was 11000 a.u.
`TGCGCAACAACTTGTCACCGAACTTTATGTCTAGAAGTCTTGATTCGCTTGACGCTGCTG` gave a fluorescence intensity of 2900 a.u.
`TCTTTCTTTCACCATCACGTCTTGGTCTGTAACAAGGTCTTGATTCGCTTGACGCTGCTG` has a fluorescence intensity of 4950 a.u.
With `CGGGGTTAAGTTTGACCTGTGGGTGGCTTGCAGCAGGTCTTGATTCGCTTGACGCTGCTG` the fluorescence intensity was 4650 a.u.
`TGATTATACTTTACCCACGCACATCAAACGCATACCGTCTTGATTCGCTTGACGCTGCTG` has a fluorescence intensity of 9540 a.u.
With `CGACCACATATATGGAACGTGGTCGAAATACAAAGAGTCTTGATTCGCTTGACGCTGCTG` the fluorescence intensity was 13300 a.u.
With `AGGAAAACAAATGAATGCGTGCCGAAAGCGGAAAATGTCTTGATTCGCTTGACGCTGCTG` the fluorescence intensity was 11200 a.u.
The fluorescence intensity of `CAAGGATACTAGAACCATGTGAGAATCGGTACCGTTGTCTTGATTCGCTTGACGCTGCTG` is reported as 5290 a.u.
`CTTTCCCGATCTTGAAACGTGGGTGTAGCACATTTGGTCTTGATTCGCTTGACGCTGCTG` gave a fluorescence intensity of 13200 a.u.
`CGGCGGCAAGGTTGTGTCGTGATGGTCGTTGCATAGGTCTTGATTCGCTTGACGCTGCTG` gave a fluorescence intensity of 6240 a.u.

Block 2
Target: RING finger protein unkempt homolog, zinc fingers 1-6, GST-SBP tag (UNK, Homo sapiens, UniProt Q9C0B0, residues 30-357)
Chain of UniProt Q9C0B0 (30-357, looked up): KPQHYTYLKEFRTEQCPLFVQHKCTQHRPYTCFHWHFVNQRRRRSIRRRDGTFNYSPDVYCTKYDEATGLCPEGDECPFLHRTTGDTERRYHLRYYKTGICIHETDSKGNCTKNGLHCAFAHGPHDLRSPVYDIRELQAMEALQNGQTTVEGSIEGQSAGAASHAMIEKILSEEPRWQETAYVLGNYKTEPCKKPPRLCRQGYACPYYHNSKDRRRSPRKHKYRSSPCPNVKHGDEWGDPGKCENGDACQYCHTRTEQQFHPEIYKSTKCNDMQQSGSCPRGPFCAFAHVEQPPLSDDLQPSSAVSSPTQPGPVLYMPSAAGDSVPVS
Method: RNA Bind-n-Seq
Molecule type: RNA
Medium: in vitro
Tested at: not given
Notes: RNA with constant flanks, ends assumed
Relative to: input RNA pool
Direction: higher = stronger binding
With `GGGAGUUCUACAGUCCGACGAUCGUAUGCCAAGGAACUCACAUUCUCUUCCGGGAAUUCAGCUUUAUACAAGCCACACCUCAUAACCGAGCAUCAUUCCUUCGGGCCUUCUGGAGAUGCUUCCGAACUGUAGGGAAAAAUGGUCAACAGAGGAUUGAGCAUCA` the bound/input enrichment was 0.366 ratio.
The bound/input enrichment of `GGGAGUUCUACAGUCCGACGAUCAACAAUGAAACCAACAACAAACAUUUUUAAAAUUAAAAUGGAUAAUUUGUAAAUAGUUUUCCGCUUUUAAAAUUUAAAGUGUUUUUGAGUGUGAAAAGUUGAGUAAAACUAUUUGCAACUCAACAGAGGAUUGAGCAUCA` is reported as 0.28 ratio.
`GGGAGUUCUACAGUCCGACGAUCGAAUCCAGUGAUUUGGUACAUGUUAAAUGGGAAUUAAAAAUCCAAAGACCCUGUAAUGAACCGUAAAGAUGAUGAUUUAUGUUGUAUGAGGAACCAAACUAUUGUAAUUUUGUACCAUACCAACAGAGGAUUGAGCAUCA` gave a bound/input enrichment of 0.102 ratio.
The bound/input enrichment of `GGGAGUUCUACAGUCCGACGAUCAAAUUCUACAAACAAGUUAUUGAUAAAGGCCAGACAAUUCCAGAGGACAUCUUAGGGAAAACCGCAGUUUCUAUUGUAAAAGCAUUAGAACAUUUACAUAGUAAGCUGUCUGUCAUUCACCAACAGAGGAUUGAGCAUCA` is reported as 0.596 ratio.
For `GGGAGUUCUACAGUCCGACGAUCCAGCACCCCAUCAAACCAGUGGUUCAUCCAACCGCUACCCCAAGCACUGUUCCUUCCCGUCCAUUUACGCUUCAGUCUGAUCACCAGCCAAAGAAAUCAUUUGAUGCUAAUGGAGCAUCUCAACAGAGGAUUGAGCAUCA`, the bound/input enrichment was 0.329 ratio.
For `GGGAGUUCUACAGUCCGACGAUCUUAAUCCCCUUUACUGCUCCCCCACUUCUCAUGGUAAUAACAAAGUCUUAUAUCCCCGUCCCCGCUUUCACUCAGAUGGCUUAUGGAGCCGGUUUCCUAGCUUUCUUGGGAGGGAUCAGACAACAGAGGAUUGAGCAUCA`, the bound/input enrichment was 0.271 ratio.

Block 3
Target: Sal-like protein 4, full length isoform B (SALL4, Homo sapiens, UniProt Q9UJQ4-2, residues 1-616)
Method: universal PBM
Molecule type: double-stranded DNA, one strand shown
Medium: in vitro
Tested at: not given
Notes: 8-mer, flanks averaged, mean of replicates
Direction: higher = stronger binding
The E-score of `GGCGTCGA` is reported as -0.0904.
`AAACCACG` gave an E-score of -0.0842.
With `AGTGTCCA` the E-score was -0.0315.
The E-score of `ACCGTTTG` is reported as -0.136.
`CCTCTCAC` gave an E-score of 0.0112.
With `AAGGCTAC` the E-score was -0.0543.
With `CTGCGTAA` the E-score was 0.0481.
`GGATCCAA` has an E-score of 0.0163.
`GGCGTCAC` has an E-score of -0.213.
With `ACCAGCAG` the E-score was -0.25.
For `GCCGCCGC`, the E-score was -0.387.
With `GAGAGATA` the E-score was 0.143.
For `AACCACGC`, the E-score was -0.18.
With `AAAGTAAC` the E-score was 0.112.
With `CCCCGTAA` the E-score was 0.0118.
The E-score of `AAGTAGAC` is reported as -0.168.
`GGCGGATA` has an E-score of -0.146.
The E-score of `GTACACAC` is reported as 0.113.
`ATTCCCAG` gave an E-score of -0.0698.
The E-score of `ACGTTAAT` is reported as 0.243.
For `AGTAAGCG`, the E-score was -0.0981.
`CGAGCACG` gave an E-score of -0.257.

Block 4
Target: RNA binding protein fox-1 homolog 2, RRM domain, GST-SBP tag (RBFOX2, Homo sapiens, UniProt O43251-10, residues 100-194)
Method: RNA Bind-n-Seq
Molecule type: RNA
Medium: in vitro
Tested at: 365 nM
Notes: natural RNA segment, single round, ends assumed
Relative to: no-protein control
Direction: higher = stronger binding
Residues (chain): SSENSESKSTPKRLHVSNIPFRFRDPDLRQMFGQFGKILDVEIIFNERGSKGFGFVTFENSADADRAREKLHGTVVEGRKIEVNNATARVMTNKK
`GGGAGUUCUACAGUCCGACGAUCCACCAUUCAGUCUCCCCCUUUUCCUCUGUUUUUACAAUAAAGAAAGCACAUUUUACCAUUGCUAUUGGGAGGAAGCAGAAGGCAGAUUGGAAAGAACAGCGAGUAAGUGCUGGAAUUCUCGGGUGCCAA`: “RBNS enrichment (R)” 0.376.
`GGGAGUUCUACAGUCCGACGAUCCACCCAGUCCUUAGGACAAGUAGAAAGGGGCAUUCUGGCACUUGGCAUAACCUAUGCCACGAUGGUGAGAUAAUGUGAAAAAGUGGUAUCCUCUGAUGUCAGCGUAUUAGUGGAAUUCUCGGGUGCCAA`: “RBNS enrichment (R)” 0.352.
`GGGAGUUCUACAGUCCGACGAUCGACCUCACCAUAGGUUGGGGUCCCAGUAGGAAGGCUCAGGGUCUGUGCCAGCCCUGUCGGUGCUGCUCAGACCUUCAUAGCCUCUCUUGUCAUUCUUUGUUGCCCCUUUUUGGAAUUCUCGGGUGCCAA` — result for “RBNS enrichment (R)”: 0.164.
Under “RBNS enrichment (R)”, `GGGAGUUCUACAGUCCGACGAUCGACCUGUCACGAGCCUCUGCAGGUGCCUGCUCACCAUGGCCCAGCGCCACUCUGUCCUCCGACUCAGGUGAGGGGGCAGCCCACAGACCUGCUCCUCAGUAGCAGGGCCUUGGAAUUCUCGGGUGCCAA` is recorded as 0.204.
Under “RBNS enrichment (R)”, `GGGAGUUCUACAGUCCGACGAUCUGGCCUACAGCUUCCUCUGCAGGGUCUAAACAGGGAAGGCACGUGUGGAGGAGUGGUCCCAGUGACAUCCAGGCACCAUUCAGCACAACACUGGGAAGUGAUUCUUCCCUUGGAAUUCUCGGGUGCCAA` is recorded as 2.72.
For `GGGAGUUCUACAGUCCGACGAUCGAGACUGGUUCUCCUGACCCCCACCCGAGAGCGAGAGCGCCAAGUGCAGGGCCUUGUGUUGUGUGGUUUUACUUGGGCUGGGGGUGGUUCUUGCGGUUUCUUCCAUUGCUUGGAAUUCUCGGGUGCCAA`, “RBNS enrichment (R)” read 1.61.
Under “RBNS enrichment (R)”, `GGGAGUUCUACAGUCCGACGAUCCGCCCCACAGAACUGGCAGCAGCUUCUCCACUGUCAUCAAACUGGCCAUGUCCUGGCCCCGUCUCCACCAACCUUUGUGUGACAAAAACAAGGACAAAUUCCUGCUACUAUGGAAUUCUCGGGUGCCAA` is recorded as 0.586.
`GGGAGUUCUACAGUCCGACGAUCCACGGGAUAGCCUUUGCUGUGCCCUGUGGCCUGGCCGCAGUGAGGCAUGUAUCUGUAGUUCCUUGCUGAGUAACAAGAAGUAAAAUACAUGUUUGUAUAUCUACAUUUACUGGAAUUCUCGGGUGCCAA` — result for “RBNS enrichment (R)”: 0.369.

Excerpt of the above (block 1):
With `CGGGGTTAAGTTTGACCTGTGGGTGGCTTGCAGCAGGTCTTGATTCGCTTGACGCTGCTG` the fluorescence intensity was 4650 a.u.
`TGATTATACTTTACCCACGCACATCAAACGCATACCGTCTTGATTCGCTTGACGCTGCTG` has a fluorescence intensity of 9540 a.u.
`CGGCGGCAAGGTTGTGTCGTGATGGTCGTTGCATAGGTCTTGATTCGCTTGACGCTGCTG` gave a fluorescence intensity of 6240 a.u.
`CTTTCCCGATCTTGAAACGTGGGTGTAGCACATTTGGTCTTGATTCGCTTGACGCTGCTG` gave a fluorescence intensity of 13200 a.u.
With `CGACCACATATATGGAACGTGGTCGAAATACAAAGAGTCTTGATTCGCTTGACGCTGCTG` the fluorescence intensity was 13300 a.u.
`TGCGCAACAACTTGTCACCGAACTTTATGTCTAGAAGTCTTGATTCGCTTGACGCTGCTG` gave a fluorescence intensity of 2900 a.u.
The fluorescence intensity of `CCCGGACATGTACGCCAGGTGATGTTCCATTTGCCAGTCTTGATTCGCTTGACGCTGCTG` is reported as 4300 a.u.
`CGTCCGAGAGCCCGCGACCTGATCCGACTTCAGGGTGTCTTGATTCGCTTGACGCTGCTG` gave a fluorescence intensity of 2870 a.u.
The fluorescence intensity of `CAAGGATACTAGAACCATGTGAGAATCGGTACCGTTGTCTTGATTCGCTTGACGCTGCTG` is reported as 5290 a.u.
